Measurements from different studies.
Parts stem from different laboratories: compare values within a part only. Positions count from the first letter of the parent shown.

Sample 1
Target: Fragile X messenger ribonucleoprotein 1, C-terminal low-complexity region (Fmr1, Mus musculus, UniProt P35922)
Method: RNA Bind-n-Seq
Form: RNA
Sample: in vitro
Tested at: 200 nM
Notes: whole 134-nt RNA, ends assumed
Together with: 150 mM KCl
Relative to: input library
Reading: higher = stronger binding
Quantity: log2 enrichment
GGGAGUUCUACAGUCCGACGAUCUGAAAUGUUUUUUUCUCUGUCUUCUUUCAGGUCUUUGUUGAGUAUGCAAAUGCUGGUGAUUCCAAAGCUGCGCAGAAAUUACUGACUGGAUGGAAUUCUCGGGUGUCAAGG: -0.575
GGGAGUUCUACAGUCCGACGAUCCACAGACAACACGCACCCACACAGACACAGAGGGAAGGGGUUGGGAUGGGGACAGGGUGCACAGCAGGGCGGGGUAGGACCCCAGCCCUUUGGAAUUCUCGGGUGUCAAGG: 1.35
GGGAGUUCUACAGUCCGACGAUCGUCCUGUGCUACACAUCGUAUGUACCGAAUCGGGGAAAAAGGGAAAAAGGAAAAAGGGGAAAGUAUUAUGUUACGCCGUUCGGAUCUGCAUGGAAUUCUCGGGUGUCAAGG: -0.199
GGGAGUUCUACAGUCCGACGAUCGCAGGAAGUAAAAACAAAUGGAAAUGCUUCGGAUAGUGGCAGGGGUGGGGGUUCCUAAGGAAAGGGUGGGAUGGGAGUGGGUAAAGAGUUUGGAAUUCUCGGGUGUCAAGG: 0.841
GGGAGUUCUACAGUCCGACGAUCCAAGUCCUGUGCUACACAUCGUAUGUACCGAAUCGGGAAAAAAAGGGUGGGAGGGAAAGUAUUAUGUUACGCCGUUCGGAUCUGCACUUCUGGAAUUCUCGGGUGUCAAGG: 0.955
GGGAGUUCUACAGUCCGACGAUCUGGGAGGUGGAUUUUGUUUAUUUUUUCAGCUCAUUUCCAGGGGUGGGAAUUUUUUUUUAAUAUGUGUCAUGAAUAAAGUUGUUUUUGAAAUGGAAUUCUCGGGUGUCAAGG: 0.127
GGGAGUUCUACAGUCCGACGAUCCUGUGCUACACAUCGUAUGUACCGAAUCGGGGUUUUUUUGGUUUUUUUGGGGUUUUUUUGGAAAGUAUUAUGUUACGCCGUUCGGAUCUGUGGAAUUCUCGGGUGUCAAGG: -0.757

Sample 2
Target: RING finger protein unkempt homolog, zinc fingers 1-6, SBP tag (UNK, Homo sapiens, UniProt Q9C0B0, residues 30-357)
Chain of UniProt Q9C0B0 (30-357, looked up): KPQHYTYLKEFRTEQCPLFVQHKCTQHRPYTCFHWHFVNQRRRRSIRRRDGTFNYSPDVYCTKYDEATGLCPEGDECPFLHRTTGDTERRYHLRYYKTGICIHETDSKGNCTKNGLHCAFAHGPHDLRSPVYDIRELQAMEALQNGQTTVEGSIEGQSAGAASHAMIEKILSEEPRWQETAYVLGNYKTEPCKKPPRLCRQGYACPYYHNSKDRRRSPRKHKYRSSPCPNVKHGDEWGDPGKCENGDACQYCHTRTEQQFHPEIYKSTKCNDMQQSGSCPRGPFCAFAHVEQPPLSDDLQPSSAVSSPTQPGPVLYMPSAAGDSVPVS
Method: RNA Bind-n-Seq
Form: RNA
Sample: in vitro
Tested at: 100 nM
Notes: RNA with constant flanks, vertebrate orthologous sites, ends assumed
Relative to: input RNA pool
Reading: higher = stronger binding
Quantity: bound/input enrichment
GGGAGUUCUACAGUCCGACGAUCAUCCUUUCGCGCUGUCUCCGGCCGGGGUUGAGGACCAGACGUUUCACCGAGGACCUGCAUUUCAAACAAUUUUUUAAAUUGUACAGGAAGAGAUGUGCUGAAAACAGCAUCUCAAAGUCGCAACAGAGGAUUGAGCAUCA: 0.218 ratio
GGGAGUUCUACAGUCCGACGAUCGUGAGGGUCUAGUGACCACUCACUGUUAUGUCUGGUAUCUGUAAACACUCUUUUGGUUCUUAGUCUUUUUCUUGUAUAAUUGAUGUUCUUUAAAAUUGUUAAUGUAUAACAGGGCUUAUGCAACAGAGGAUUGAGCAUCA: 1.05 ratio
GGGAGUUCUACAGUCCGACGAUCCAGCUGAUUCACUCAUUGGCAGAGCUGCACAUAUAGCUGUUCUUGAUUCAGAAAUAUUUUUAGAAAAAUUCUUUCUGGUUGCUGCCCUCAAAUAUUUCCAGUAGGAUAAAACAUUGUUAACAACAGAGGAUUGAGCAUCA: 0.983 ratio
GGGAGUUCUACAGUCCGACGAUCGAAGAGCUGAGGGGAGUAAGGCCGUGAUUCCUCAGAGGGUUUUUCCUUGUUUUUAGUUUGCUAGGGGUUGGGUGGGUUGUGGUACACACCUUCUCGGAGGCGGGAGCUCUAGUGAUACCUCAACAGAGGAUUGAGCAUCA: 3.94 ratio
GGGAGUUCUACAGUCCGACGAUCAGGGAUGGCCCCCAAUCCCACUUCUGUUUAUUCUGUAAACUACAACCUGUAAAUAACGUUUAGCAUUCCUAUUGUAACAAAAUUAAUUUUUAUGAAAUAAAUUAUAUUUCCUAGUCUAAUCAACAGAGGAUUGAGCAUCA: 1.5 ratio

Sample 3
Target: CCNB3, cyclin fold, Cln2 fusion (human)
Method: yeast growth competition, sequencing
Sample: yeast
Notes: weak parent motif
Relative to: not given
Reading: higher = stronger binding
Quantity: normalised enrichment score
Starting sequence: CDC6 docking peptide (human); TLKGRRLVFDNQL; partner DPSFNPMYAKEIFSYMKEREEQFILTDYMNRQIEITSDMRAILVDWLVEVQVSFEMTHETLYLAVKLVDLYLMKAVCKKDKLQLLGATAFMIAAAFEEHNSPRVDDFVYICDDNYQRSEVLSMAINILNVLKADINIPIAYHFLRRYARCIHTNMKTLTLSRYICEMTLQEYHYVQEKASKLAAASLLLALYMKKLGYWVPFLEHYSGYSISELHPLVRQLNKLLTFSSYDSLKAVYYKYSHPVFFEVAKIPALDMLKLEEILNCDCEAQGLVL
TLKMRRLVFDNQL [G4M]: 0.78
TLKGRRLVWDNQL [F9W]: 0.504
TLKGRRLVFCNQL [D10C]: 0.614
TLKGRRLVYDNQL [F9Y]: -0.0565

Further values, each from its own experiment
PhoQ, residues 284 288 289 292 302 303 SMYGEC  fold induction (PhoP, residues 12 14 15 18 19 DLLYY (Escherichia coli, UniProt P23836); Sort-seq, refers to: YFP reporter; E. coli; PhoQ-PhoP variant library, together with: 10 µM Mg2+; relative to: high Mg2+ state, higher = stronger signaling): 3.67

Excerpt of the above (sample 2):
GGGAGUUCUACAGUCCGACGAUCGAAGAGCUGAGGGGAGUAAGGCCGUGAUUCCUCAGAGGGUUUUUCCUUGUUUUUAGUUUGCUAGGGGUUGGGUGGGUUGUGGUACACACCUUCUCGGAGGCGGGAGCUCUAGUGAUACCUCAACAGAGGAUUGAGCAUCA: 3.94 ratio
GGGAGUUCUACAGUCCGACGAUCAGGGAUGGCCCCCAAUCCCACUUCUGUUUAUUCUGUAAACUACAACCUGUAAAUAACGUUUAGCAUUCCUAUUGUAACAAAAUUAAUUUUUAUGAAAUAAAUUAUAUUUCCUAGUCUAAUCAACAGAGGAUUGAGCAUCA: 1.5 ratio
